# Literature values that unrelated publications cite.
# Protocols differ between the studies behind these lines.
Structure (SMILES),target or system,assay,system,setting,scale,endpoint,result
Cc1c2c(nn1C)CSCc1cc(n(C)n1)CSc1cc(c3ccccc3c1)OCCCc1c(C(=O)O)n(C)c3c-2c(Cl)ccc13,,,"mouse, plasma","intravenous, 100 mg/kg single, 24 h",,plasma concentration,~3 ng/mL
CC1(C)CCC(CN2CCN(c3ccc(C(=O)NS(=O)(=O)c4ccc(NCC5CCOCC5)c([N+](=O)[O-])c4)c(Oc4cnc5[nH]ccc5c4)c3)CC2)=C(c2ccc(Cl)cc2)C1,,,"human, AML","concentration not given, with: low-dose cytarabine",,CR with partial hematologic recovery rate,21%
C#CCNS(=O)(=O)c1ccc(CCN(Cc2cc(Cl)ccc2OCCC)C(=O)Cc2ccsc2)cc1,,,LPS-challenged mouse,"intraperitoneal, 10 mg/kg",,serum IL-1β suppression,~65%
O=C1CCC(N2C(=O)c3ccccc3C2=O)C(=O)N1 (centres unmarked),Toxoplasma gondii,parasite growth,,"concentration not given, published screen",,activity class,inactive
CO/N=c1/ccn([C@@H]2O[C@H](COP(=O)(O)OP(=O)(O)OP(=O)(O)OC[C@H]3O[C@@H](n4ccc(=O)[nH]c4=O)[C@H](O)[C@@H]3O)[C@@H](O)[C@H]2O)c(=O)[nH]1,P2Y6 receptor,"phospholipase C stimulation, agonist",,,,EC50,0.012 µM
COC[C@@H](c1ccc(C(F)(F)F)cc1)N1CCN(C2(C)CCN(C(=O)c3c(C)ncnc3C)CC2)C[C@@H]1C,,,treatment-naive HIV subjects,"50 mg once daily, day 14, monotherapy without ritonavir",,HIV RNA reduction,1.18 log10 copies/mL
CN1CC[C@@H](c2c(O)cc(O)c3c(=O)cc(-c4ccc(C(F)(F)F)cc4Cl)oc23)[C@@H]1CO,,,human,"200 mg daily, 14 days",,trough concentration,> 1.5 µM
CCN(CC)CC.CCN(CC)CC.O=c1ccn([C@]23C[C@H]2[C@H](COP(=O)(O)OP(=O)(O)O)[C@@H](O)[C@H]3O)c(=O)[nH]1,P2Y6 receptor,phospholipase C activation,,,reference: UDP,potency enhancement,7 fold

# A few entries again:
Structure (SMILES),target or system,assay,system,setting,scale,endpoint,result
CO/N=c1/ccn([C@@H]2O[C@H](COP(=O)(O)OP(=O)(O)OP(=O)(O)OC[C@H]3O[C@@H](n4ccc(=O)[nH]c4=O)[C@H](O)[C@@H]3O)[C@@H](O)[C@H]2O)c(=O)[nH]1,P2Y6 receptor,"phospholipase C stimulation, agonist",,,,EC50,0.012 µM
